Experimental data gathered from unrelated publications.
Protocols differ between the studies behind these lines. Values joined by “and” are separate records of one study, mostly repeats; a detail may differ.
Genome polyprotein NS2B-NS3 protease: Genome polyprotein, NS2B-NS3 protease (dengue virus type 2, UniProt P29990)
SIRT5: NAD-dependent protein deacylase sirtuin-5, mitochondrial (SIRT5, Homo sapiens, UniProt Q9NXA8)
Chain of UniProt Q9NXA8 (whole entry, looked up): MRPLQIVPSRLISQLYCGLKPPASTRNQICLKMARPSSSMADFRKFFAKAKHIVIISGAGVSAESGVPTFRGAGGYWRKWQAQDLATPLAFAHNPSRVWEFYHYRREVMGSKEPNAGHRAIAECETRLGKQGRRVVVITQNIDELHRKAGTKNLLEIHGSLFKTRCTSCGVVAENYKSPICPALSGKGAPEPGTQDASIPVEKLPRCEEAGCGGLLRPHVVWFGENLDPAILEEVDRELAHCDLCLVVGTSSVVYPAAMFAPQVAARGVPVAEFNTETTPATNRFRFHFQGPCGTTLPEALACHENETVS
HDAC11: Histone deacetylase 11 (HDAC11, Homo sapiens, UniProt Q96DB2)
Chain of UniProt Q96DB2 (whole entry, looked up): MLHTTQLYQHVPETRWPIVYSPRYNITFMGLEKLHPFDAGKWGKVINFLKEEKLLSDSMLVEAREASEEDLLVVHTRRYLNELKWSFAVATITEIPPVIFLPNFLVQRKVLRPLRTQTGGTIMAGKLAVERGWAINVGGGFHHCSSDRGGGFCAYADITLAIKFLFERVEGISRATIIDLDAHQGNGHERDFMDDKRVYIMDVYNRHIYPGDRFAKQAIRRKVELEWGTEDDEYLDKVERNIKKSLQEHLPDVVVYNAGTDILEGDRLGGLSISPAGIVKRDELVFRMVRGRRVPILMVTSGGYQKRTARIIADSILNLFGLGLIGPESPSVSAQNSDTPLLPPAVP
ATR: Serine/threonine-protein kinase ATR (ATR, Homo sapiens, UniProt Q13535)
TNKS: Poly [ADP-ribose] polymerase tankyrase-1 (TNKS, Homo sapiens, UniProt O95271)
Chain of UniProt O95271 (whole entry, looked up): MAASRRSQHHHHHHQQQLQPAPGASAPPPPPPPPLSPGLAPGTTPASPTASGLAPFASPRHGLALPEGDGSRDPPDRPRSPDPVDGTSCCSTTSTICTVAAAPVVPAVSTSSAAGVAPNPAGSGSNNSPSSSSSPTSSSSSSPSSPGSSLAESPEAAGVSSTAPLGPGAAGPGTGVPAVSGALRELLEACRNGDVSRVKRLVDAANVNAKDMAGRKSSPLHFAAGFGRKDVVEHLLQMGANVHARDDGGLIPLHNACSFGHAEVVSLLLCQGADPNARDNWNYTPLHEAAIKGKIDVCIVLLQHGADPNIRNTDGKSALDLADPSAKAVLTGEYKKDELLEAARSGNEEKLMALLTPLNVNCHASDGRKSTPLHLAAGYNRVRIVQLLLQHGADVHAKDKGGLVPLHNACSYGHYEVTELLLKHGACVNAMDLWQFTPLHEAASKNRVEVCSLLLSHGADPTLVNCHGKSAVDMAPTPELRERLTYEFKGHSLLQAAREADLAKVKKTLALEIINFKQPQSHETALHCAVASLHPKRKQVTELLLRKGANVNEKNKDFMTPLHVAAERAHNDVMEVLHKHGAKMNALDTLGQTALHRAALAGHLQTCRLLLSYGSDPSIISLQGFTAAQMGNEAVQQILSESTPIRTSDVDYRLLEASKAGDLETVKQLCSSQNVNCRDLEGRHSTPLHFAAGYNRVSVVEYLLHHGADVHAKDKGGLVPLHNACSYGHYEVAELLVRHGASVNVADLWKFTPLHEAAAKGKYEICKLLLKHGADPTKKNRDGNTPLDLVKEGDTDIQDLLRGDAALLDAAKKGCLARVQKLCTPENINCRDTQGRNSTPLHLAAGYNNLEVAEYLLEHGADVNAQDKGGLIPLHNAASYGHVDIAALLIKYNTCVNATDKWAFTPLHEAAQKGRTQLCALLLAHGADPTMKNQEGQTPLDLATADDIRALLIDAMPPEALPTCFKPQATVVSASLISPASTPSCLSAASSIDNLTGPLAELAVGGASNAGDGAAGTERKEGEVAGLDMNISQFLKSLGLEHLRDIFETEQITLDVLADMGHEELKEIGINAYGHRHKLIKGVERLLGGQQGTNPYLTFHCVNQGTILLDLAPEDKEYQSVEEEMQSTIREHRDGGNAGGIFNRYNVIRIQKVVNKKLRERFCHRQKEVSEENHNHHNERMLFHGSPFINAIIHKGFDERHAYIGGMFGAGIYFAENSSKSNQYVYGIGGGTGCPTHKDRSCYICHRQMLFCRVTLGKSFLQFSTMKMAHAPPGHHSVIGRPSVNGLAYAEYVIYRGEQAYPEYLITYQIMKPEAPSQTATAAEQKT
Chain of UniProt Q93009 (whole entry, looked up): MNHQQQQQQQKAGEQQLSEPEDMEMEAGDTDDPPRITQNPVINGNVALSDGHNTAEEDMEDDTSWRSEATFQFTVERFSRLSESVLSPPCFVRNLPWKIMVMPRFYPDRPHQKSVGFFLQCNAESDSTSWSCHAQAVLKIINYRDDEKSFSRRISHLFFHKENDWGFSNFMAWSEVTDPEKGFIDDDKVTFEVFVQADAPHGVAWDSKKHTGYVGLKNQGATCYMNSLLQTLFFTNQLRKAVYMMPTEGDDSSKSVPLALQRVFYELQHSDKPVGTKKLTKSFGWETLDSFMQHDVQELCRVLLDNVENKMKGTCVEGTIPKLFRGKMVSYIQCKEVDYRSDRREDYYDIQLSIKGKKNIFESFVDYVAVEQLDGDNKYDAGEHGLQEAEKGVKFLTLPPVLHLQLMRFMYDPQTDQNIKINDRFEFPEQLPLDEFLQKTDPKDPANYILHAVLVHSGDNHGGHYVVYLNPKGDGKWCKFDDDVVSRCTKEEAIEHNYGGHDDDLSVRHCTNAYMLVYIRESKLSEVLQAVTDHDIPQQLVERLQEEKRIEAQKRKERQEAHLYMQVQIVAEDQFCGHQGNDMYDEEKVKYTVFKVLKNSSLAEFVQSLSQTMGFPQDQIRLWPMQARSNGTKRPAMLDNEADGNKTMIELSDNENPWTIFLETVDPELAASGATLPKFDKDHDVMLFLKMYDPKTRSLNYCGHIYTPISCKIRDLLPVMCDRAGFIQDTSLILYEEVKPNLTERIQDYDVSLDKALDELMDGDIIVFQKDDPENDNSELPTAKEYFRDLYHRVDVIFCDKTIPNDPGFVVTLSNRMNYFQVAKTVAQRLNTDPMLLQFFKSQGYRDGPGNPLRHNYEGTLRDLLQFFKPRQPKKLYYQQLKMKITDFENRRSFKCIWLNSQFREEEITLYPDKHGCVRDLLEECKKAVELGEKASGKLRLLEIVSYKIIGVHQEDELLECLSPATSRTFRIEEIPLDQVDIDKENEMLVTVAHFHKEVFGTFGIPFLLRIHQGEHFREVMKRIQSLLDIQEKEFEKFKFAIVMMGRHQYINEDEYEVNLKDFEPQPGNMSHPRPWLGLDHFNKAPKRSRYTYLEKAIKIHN
Chain of UniProt Q13148 (whole entry, looked up): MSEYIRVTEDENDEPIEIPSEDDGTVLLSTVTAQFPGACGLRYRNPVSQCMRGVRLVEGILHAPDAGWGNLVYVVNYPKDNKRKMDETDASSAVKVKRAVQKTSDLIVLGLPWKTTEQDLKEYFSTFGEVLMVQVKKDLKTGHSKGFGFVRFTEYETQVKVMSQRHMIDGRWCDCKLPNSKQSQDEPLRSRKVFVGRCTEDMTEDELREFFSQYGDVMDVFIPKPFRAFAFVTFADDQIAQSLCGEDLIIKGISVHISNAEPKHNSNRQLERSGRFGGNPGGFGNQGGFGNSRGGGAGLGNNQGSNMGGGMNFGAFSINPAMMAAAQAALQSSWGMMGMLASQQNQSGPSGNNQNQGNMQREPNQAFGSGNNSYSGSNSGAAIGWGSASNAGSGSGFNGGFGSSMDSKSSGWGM
Chain of UniProt Q8R146 (whole entry, looked up): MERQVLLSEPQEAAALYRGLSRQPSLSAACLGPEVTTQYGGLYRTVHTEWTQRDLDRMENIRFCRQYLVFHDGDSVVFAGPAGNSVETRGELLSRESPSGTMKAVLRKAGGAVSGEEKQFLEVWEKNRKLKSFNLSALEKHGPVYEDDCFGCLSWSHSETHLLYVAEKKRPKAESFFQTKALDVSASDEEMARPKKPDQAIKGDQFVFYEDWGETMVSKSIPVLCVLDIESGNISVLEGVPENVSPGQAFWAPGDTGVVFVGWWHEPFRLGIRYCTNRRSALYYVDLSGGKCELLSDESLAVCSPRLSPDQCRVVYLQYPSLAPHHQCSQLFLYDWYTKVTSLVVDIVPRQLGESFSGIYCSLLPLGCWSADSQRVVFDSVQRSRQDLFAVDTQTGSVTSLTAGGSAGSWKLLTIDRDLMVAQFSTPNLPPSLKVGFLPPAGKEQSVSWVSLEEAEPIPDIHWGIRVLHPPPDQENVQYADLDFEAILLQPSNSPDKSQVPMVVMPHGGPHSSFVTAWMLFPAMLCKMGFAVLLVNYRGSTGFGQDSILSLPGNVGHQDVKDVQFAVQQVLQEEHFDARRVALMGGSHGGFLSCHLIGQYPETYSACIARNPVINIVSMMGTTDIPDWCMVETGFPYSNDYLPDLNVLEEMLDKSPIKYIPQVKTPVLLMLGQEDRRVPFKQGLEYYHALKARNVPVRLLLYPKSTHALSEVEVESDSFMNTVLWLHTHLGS
Chain of UniProt P41597 (whole entry, looked up): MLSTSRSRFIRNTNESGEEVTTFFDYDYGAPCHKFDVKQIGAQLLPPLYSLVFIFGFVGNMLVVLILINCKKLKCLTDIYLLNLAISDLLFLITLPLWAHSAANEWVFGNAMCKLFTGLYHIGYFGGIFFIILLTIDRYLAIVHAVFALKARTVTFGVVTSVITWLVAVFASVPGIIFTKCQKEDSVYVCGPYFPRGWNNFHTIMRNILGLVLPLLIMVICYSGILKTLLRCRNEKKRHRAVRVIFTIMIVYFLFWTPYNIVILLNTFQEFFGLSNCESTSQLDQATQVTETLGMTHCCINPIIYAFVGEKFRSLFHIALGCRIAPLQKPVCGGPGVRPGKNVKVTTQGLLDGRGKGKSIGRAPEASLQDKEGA
Chain of UniProt Q9H3N8 (whole entry, looked up): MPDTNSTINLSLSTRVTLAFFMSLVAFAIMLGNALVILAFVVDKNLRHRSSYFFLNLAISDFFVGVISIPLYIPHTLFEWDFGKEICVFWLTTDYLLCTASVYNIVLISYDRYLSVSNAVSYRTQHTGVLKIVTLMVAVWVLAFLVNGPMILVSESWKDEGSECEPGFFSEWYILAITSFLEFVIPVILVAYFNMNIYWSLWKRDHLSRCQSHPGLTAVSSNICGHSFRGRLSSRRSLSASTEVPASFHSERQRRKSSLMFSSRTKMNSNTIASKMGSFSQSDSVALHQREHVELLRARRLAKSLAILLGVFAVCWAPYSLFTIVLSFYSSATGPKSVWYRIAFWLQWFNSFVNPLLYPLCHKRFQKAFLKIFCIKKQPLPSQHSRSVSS

Compound	target or system	assay	system	conditions	how to read	quantity	value
Cc1cccc(N2CCC(C(=O)Nc3cccc(C(N)=O)c3)C2=O)c1 (stereo not drawn)	Genome polyprotein NS2B-NS3 protease	enzyme activity, fluorogenic AMC substrate	–	50 µM	–	inhibition	17%
C/C=C/C(=O)Nc1ccc2nc(NCCCCCN(C)C)nc(NCCCCCCN(C)C)c2c1	KMT5C (Homo sapiens, UniProt Q86Y97)	enzyme activity, inhibitor, radiometric	–	50 µM	–	inhibition	57%
Brc1ccccc1-c1nnc(CSc2nnnn2-c2ccccc2)o1	HRH4 (Homo sapiens, UniProt Q9H3N8)	ligand displacement, radioligand	–	10 µM	–	inhibition	8%
CCC(=O)N(C)c1ccc(Cl)c(Cl)c1	TACR2 (Homo sapiens, UniProt P21452)	ligand displacement, radioligand	–	10 µM	–	inhibition	< 10%
O=C1c2sc(-c3ccc(N4CCC(CO)CC4)nc3F)nc2CCN1c1cccnc1	ADORA3 (Homo sapiens, UniProt P0DMS8)	ligand displacement, radioligand	–	1 µM	–	inhibition	3%
CCCCCCCCCCCCCCCC(=O)N[C@@H](CCCCN)C(=O)N[C@@H](CCCCN)C(=O)N[C@@H](CO)C(=O)N[C@@H](CCCNC(=N)N)C(=O)N[C@@H](C)C(=O)N[C@@H](CC(C)C)C(=O)N[C@@H](Cc1ccccc1)C(N)=O	F2RL3 (Homo sapiens, UniProt Q96RI0)	platelet aggregation, ex vivo LTA	human	0.3 mg/kg, 4 to 6 h, together with: AYPGKF 160 µM	relative to: baseline	inhibition	18%
O=C(NC1CCC1)[C@H](Cc1c[nH]c2ccccc12)NC(=O)[C@H](CCCCNC(=S)NCCS(=O)(=O)O)NS(=O)(=O)c1cccc(F)c1	SIRT5	enzyme activity, inhibitor	–	100 µM	–	inhibition	46%
CC(C)(C)c1ccccc1OS(=O)(=O)Oc1cccc(C(=O)NO)c1	HDAC11	–	–	10 µM	–	inhibition	24%
CN1CCCNC(=O)c2cccc(c2)C(=O)NCCCN(C)CCCNc2cccc3c2C(=O)c2cccc(c2C3=O)NCCC1	SAS	RNA-seq, measured: MT-TW mRNA	–	1 µM, 6 h	relative to: untreated cells	log2 fold change	1.69
O=C(c1cc(-c2ccccc2)n(-c2ccccc2)n1)N1CCN(Cc2ccccn2)CC1	Genome polyprotein NS2B-NS3 protease	reporter gene	HeLa	12.5 µM	–	inhibition	42%
O=C(/C=C/c1cccc(OS(=O)(=O)Oc2ccc(Br)cc2)c1)NO	HDAC4 (Homo sapiens, UniProt P56524)	–	–	10 µM	–	inhibition	17%
Cn1ccc2cc(-n3c(=O)[nH]c4sc5c(c4c3=O)CCCC5)ccc21	ADRA1D (Homo sapiens, UniProt P25100)	cell-free assay, radioligand	–	10 µM	–	inhibition	3%
C[Si]1(C[C@H](CN)CC(=O)O)CCCC1	TNF-alpha receptor, human	binding, radioligand binding	–	70 µM, together with: iodinated TNF-alpha	–	inhibition	-1%
COc1ncc2nc(C)n(Cc3ncc(S(N)(=O)=O)cc3F)c2c1-c1ccccc1	CNR2 (Homo sapiens, UniProt P34972)	antagonist, cell-based	–	10 µM	–	inhibition	8.62%
CCCCCCCCCCCCCC(=S)NCCCC[C@H](NS(C)(=O)=O)C(=O)N[C@@H](C)C(=O)N[C@@H](CCCNC(=N)N)C(N)=O	SIRT5	enzyme activity, inhibitor	–	100 µM	–	inhibition	< 5%
CN(Cc1ccc(/C=C/C(=O)NO)cc1)CC12CC3CC(CC(C3)C1)C2	human A3 receptor	agonist radioligand binding	–	0.05 µM	–	inhibition	15%
CN(C)C(=O)n1ccnn1	Acylamino-acid-releasing enzyme (Apeh, Mus musculus, UniProt Q8R146)	serine hydrolase activity, inhibitor, competitive gel-based ABPP	mouse T-cell proteome	1 µM, 30 min, 37 °C	–	inhibition	< 50%
NCc1ccc(CNC(=O)c2cc(-c3ccccc3)n(-c3ccccc3)n2)cc1	Genome polyprotein NS2B-NS3 protease	enzyme activity, fluorogenic AMC substrate	–	50 µM	–	inhibition	18%
COC1CN([C@H]2CC[C@H]([C@@]3(C)Oc4c(Cl)cc(C(=O)NCc5c(SC)cc(C)[nH]c5=O)c(C)c4O3)CC2)C1	–	RNA-seq, measured: PHLDA3	human, whole blood	dose not given, 24 h	relative to: pretreatment baseline	log2 fold change	1.31
COc1ccc(C(=O)/C=C/c2ccccc2-c2c[nH]c3ccc(C#N)cc23)c(O)c1	ATR	enzyme activity, inhibitor	–	20 µM	–	inhibition	10%
N#Cc1c(Nc2ccccc2C(F)(F)F)s[nH]c1=O	TNKS	enzyme activity, inhibitor	–	10 µM	–	inhibition	20%
O=C1c2sc(-c3ccc(N4CCC(F)C4)nc3F)nc2CCN1c1cccnc1 (stereo not drawn)	TAR DNA-binding protein 43, aggregated (TARDBP, Homo sapiens, UniProt Q13148)	radioligand binding	homogenate, FTLD-TDP, type A	125 nM, together with: [3H]ACI-19626	–	inhibition	45.2% and 37.6%
CN1CC[C@@H](COc2cnc(C#N)cc2-c2ccn3nc(NC(=O)C4CC4)cc3c2)C1	ATR	enzyme activity, inhibitor	–	1 µM	–	inhibition	-2%

Compound	target or system	assay	system	conditions	how to read	quantity	value
O=C(Nc1cccc(CNc2ncccn2)c1)c1cc(-c2ccccc2)n(-c2ccccc2)n1	Genome polyprotein NS2B-NS3 protease	reporter gene	HeLa	12.5 µM	–	inhibition	83%
CC(=O)N[C@H](C(=O)N[C@@H](CO)C(=O)N[C@@H](Cc1ccccc1)C(=O)N[C@H]1CCCCNC(=N)NCCCCNC(=N)NCCCC[C@@H](C(=O)N2CCC[C@H]2C(N)=O)NC(=O)[C@H](CC(C)C)NC(=O)[C@H](CC(C)C)NC(=O)[C@H](C)NC(=O)[C@H](Cc2c[nH]c3ccccc23)NC(=O)[C@H](Cc2ccc(O)cc2)NC(=O)[C@H](CCC(=O)O)NC1=O)[C@@H](C)O	MDM2 (Homo sapiens, UniProt Q00987)	protein-protein interaction, inhibitor, TR-FRET	–	0.1 µM	–	inhibition	≥ 90%
O=C(CC1CC2CCC1C2)NCCNC(=O)Cn1c(=O)[nH]c(=O)c2ccccc21 (stereo not drawn)	TNKS	enzyme activity, inhibitor	–	50 nM	–	inhibition	2%
Cc1cc(Cl)cc(-c2ccnc3cc(CN4C(=O)C5C(C4=O)C5(C)C)sc23)c1C[C@@H]1CNCCO1 (stereo partly drawn)	USP7 (Homo sapiens, UniProt Q93009)	enzyme activity, inhibitor	–	0.005 µM	–	inhibition	114% and 111%
COc1c2c(cc3oc(-c4ccccc4)cc(=O)c13)OCO2	CDK7 (Homo sapiens, UniProt P50613)	inhibitor	–	10 µM	–	inhibition	94%
CN(C)C/C=C/C(=O)Nc1ccc2nc(NCCCCCN(C)C)nc(NCCCCCCN(C)C)c2c1	BCDIN3D (Homo sapiens, UniProt Q7Z5W3)	enzyme activity, inhibitor, radiometric	–	10 µM	–	inhibition	76%
O=C1CO[C@H](CNC(=O)C2(c3ccc(Cl)cc3)CC2)CN1C1Cc2ccccc2C1	CCR2 (Homo sapiens, UniProt P41597)	β-arrestin recruitment, antagonist	–	1 µM	–	inhibition	-13%
C[Si](C)(C)C[C@H](CN)CC(=O)O	TNF-alpha receptor, human	binding, radioligand binding	–	250 µM, together with: iodinated TNF-alpha	–	inhibition	-2%
Cc1ncsc1-c1ccc(C(C)NC(=O)C2CC(O)CN2C(=O)C(NC(=O)CCCCCCCCCCN2CCCC(Nc3ncc(Cl)c(Nc4ccccc4S(=O)(=O)C(C)C)n3)C2)C(C)(C)C)cc1 (stereo not drawn)	22Rv1	RNA-seq, measured: PALB2 mRNA	–	concentration not given	relative to: DMSO	log2 fold change	-2.09
O=C(c1cc(-c2ccccc2)n(-c2ccccc2)n1)N1CCC(N2CCCC2)CC1	Genome polyprotein NS2B-NS3 protease	reporter gene	HeLa	12.5 µM	–	inhibition	26%
C=CC(=O)Nc1cc(-c2nn(C3CCN(CCNC(=O)[C@H](C)CCC45CC6CC(CC(C6)C4)C5)CC3)c3ncnc(N)c23)ccc1Oc1ccccc1	DGKA (Homo sapiens, UniProt P23743)	inhibitor, KiNativ profiling	biochemical	2 µM	–	inhibition	7.3%
Cc1c(C(=O)N[C@H](C(=O)Nc2cccc(C(N)=O)c2)c2ccc(OCc3ccccc3)cc2)cnn1-c1ccccc1	Genome polyprotein NS2B-NS3 protease	reporter gene	HeLa	12.5 µM	–	inhibition	68%
CC(=O)C12NC(C)(C)CC1(C)C(=O)C1=C2c2c(c3c4n2C(C)(C)CC2=C4C4(CC(C)(C)NC(C)(C4)C2=O)CC3(C)C)C(=O)C(C)(C)N1 (single isomer, unassigned; (+))	TRPV4 (Homo sapiens, UniProt Q9HBA0)	ion current, inhibitor, patch clamp	HEK-293T	50 µM	–	inhibition	26.8%
C=CC(=O)N1Cc2nc(-c3cc(-c4cc(Cl)cnc4Cl)c(F)cc3F)n(-c3ccncn3)c2C1	KSR2 (Homo sapiens, UniProt Q6VAB6)	cell-free assay, inhibitor	–	1 µM	–	inhibition	6.6%
O=C(CCCc1ccc2c(c1)OCCO2)NCCNC(=O)Cn1c(=O)[nH]c(=O)c2ccccc21	TNKS	enzyme activity, inhibitor	–	0.104 µM	–	inhibition	47%
N=C(N)NCCCC(NC(=O)C(CC(=O)NO)Cc1ccc2ccccc2c1)C(=O)NC(Cc1c[nH]c2ccccc12)C(=O)NC(CCC(=O)O)C(N)=O (stereo not drawn)	Stromelysin-2 (Homo sapiens, UniProt P09238)	–	–	1 µM	–	inhibition	10%
COc1cc(-c2cn(C)c(=O)c3cnccc23)cc(OC)c1CN(C)C	CECR2 (Homo sapiens, UniProt Q9BXF3)	–	–	1 µM	–	inhibition	97.2%
CCn1cc(C(=O)O)c(=O)c2c(N)c(F)c(NC3CCCCC3)cc21	Cyclin-dependent kinase 12, with cyclin K (CDK12, Homo sapiens, UniProt Q9NYV4)	kinase activity	–	0.1 µM, together with: ATP at Km	–	inhibition	-13.7%
NC(=O)c1cccc(NC(=O)c2cc(-c3ccc4c(c3)OCCO4)n(-c3ccccc3)n2)c1	Genome polyprotein NS2B-NS3 protease	enzyme activity, fluorogenic AMC substrate	–	50 µM	–	inhibition	62%
CC(C)(C)c1cccc(OS(=O)(=O)Oc2cc(F)cc(C(=O)NO)c2)c1	HDAC11	–	–	5 µM	–	inhibition	48%
NC(=O)c1cccc(NC(=O)c2cc(-c3ccccc3)n(-c3ccc(Br)cc3)n2)c1	Genome polyprotein NS2B-NS3 protease	reporter gene	HeLa	12.5 µM	–	inhibition	46%
CC(C)Cn1c(SCC(=O)N2CCc3ccccc3C2)nc2cc(Cl)ccc2c1=O	GABAA receptor	binding	–	10 µM	–	inhibition	9%

Repeated from above:
Compound	target or system	assay	system	conditions	how to read	quantity	value
CCCCCCCCCCCCCCCC(=O)N[C@@H](CCCCN)C(=O)N[C@@H](CCCCN)C(=O)N[C@@H](CO)C(=O)N[C@@H](CCCNC(=N)N)C(=O)N[C@@H](C)C(=O)N[C@@H](CC(C)C)C(=O)N[C@@H](Cc1ccccc1)C(N)=O	F2RL3 (Homo sapiens, UniProt Q96RI0)	platelet aggregation, ex vivo LTA	human	0.3 mg/kg, 4 to 6 h, together with: AYPGKF 160 µM	relative to: baseline	inhibition	18%
O=C(NC1CCC1)[C@H](Cc1c[nH]c2ccccc12)NC(=O)[C@H](CCCCNC(=S)NCCS(=O)(=O)O)NS(=O)(=O)c1cccc(F)c1	SIRT5	enzyme activity, inhibitor	–	100 µM	–	inhibition	46%
CC(C)(C)c1ccccc1OS(=O)(=O)Oc1cccc(C(=O)NO)c1	HDAC11	–	–	10 µM	–	inhibition	24%
CN1CCCNC(=O)c2cccc(c2)C(=O)NCCCN(C)CCCNc2cccc3c2C(=O)c2cccc(c2C3=O)NCCC1	SAS	RNA-seq, measured: MT-TW mRNA	–	1 µM, 6 h	relative to: untreated cells	log2 fold change	1.69
